Measured values collected from several papers.
Each line is one published result; not all experiments were run side by side. Values joined by “and” are separate records of one study, mostly repeats; a detail may differ. ± gives the spread as reported.

For `NC(=O)/C=C/c1cccc(S(=O)(=O)Nc2ccccc2)c1`, “AUC(0-inf) metabolic ratio” read 0.783 (human, mild liver dysfunction, plasma; intravenous, 400 mg/m^2 belinostat, cycle 1 day -7, geometric mean; reference: metabolite over belinostat).
`Cc1ccc([C@@H]2O[C@H](CO)[C@@H](O)[C@H](O)[C@H]2O)cc1Cc1ccc(-c2ccc(F)cc2)s1`: “elimination rate constant” 5.28e-06 ± 2.78e-07 s⁻¹ (albino rabbit, plasma; oral or sublingual).
`O=C1OC2(c3ccccc31)c1cc(I)c(O)c(I)c1Oc1c2cc(I)c(O)c1I` gave a CL/F of 1930 mL/min/kg (female C57BL/6 mouse, plasma; oral, 100 mg/kg).
The chemosis score of `NC[C@@H](C(=O)Nc1ccc(-c2cn[nH]c2)cc1)c1ccccc1` is reported as 0 (OECD 405 eye irritation; New Zealand White rabbit, eye; topical, 0.1%, 97 h (day 5), scale 0 to 4; direction not given).
The cytokine level of `CC(=O)N[C@H](C(=O)N[C@H](C(=O)N[C@@H](CCCNC(=N)N)C(=O)N1Cc2ccccc2C[C@H]1C(=O)N[C@@H](Cc1ccccc1)C(N)=O)C1CCCCC1)C(C)C` is reported as 15700 ± 14400 pg/mL (human PBMC; Bio-Plex multiplex, item: IL-8; 250 µg/mL, 24 h).
For `NCCC(=O)N1Cc2ccccc2-c2c(nnn2-c2cn(C3OC(CO)C(O)C3O)c(=O)[nH]c2=O)-c2ccccc21` (mixture of isomers), “fluorescence lifetime τ1” read 0.3 ns (frequency-domain fluorometry; methanol).
`CC(C)(C)NCC(SS(=O)(=O)O)c1ccccc1` (centres unmarked) gave a C0 of 37200 ng/mL (female Swiss mouse, plasma; intravenous, 15 mg/kg).
With `N=C(N)c1ccc(-c2ccc(-c3ccco3)o2)nc1` the viability was 100 ± 8.9% (Salmonella typhimurium; liquid broth OD; TA1535; 50 µM, 15 h; reference: growth).
`COc1cccc([O-])c1C=NCCCN(C)CCN(C)CCCN=Cc1c([O-])cccc1OC.[67Ga+3]`: “tissue uptake ratio” 0.85 ± 0.22 (rat; intravenous, 1 min; reference: heart over liver).
`CN(O)C(=O)CCC(=O)NCCCN(CCCCN(CCCNC(=O)CCC(=O)N(C)O)C(=O)CCC(=O)N(C)O)C(=O)CCC(=O)N(C)O.[89Zr]` has a tracer uptake of 0.05 %ID/g (mouse, lung; 4 h).
With `C=CC(=O)Nc1cc(Nc2nccc(-c3cn(C4CC4)c4ccccc34)n2)c(OC)cc1N(C)CCNC` the Vd/F was 5960 ± 724 L (healthy Chinese male human, plasma; oral, 110 mg almonertinib, metabolite, [14C] single dose).
With `Cc1nn(-c2ccc(S(=O)(=O)N[C@@H](CO)CC(C)C)cc2)c2nn3nnnc3nc12` the necrotic cells was 82 ± 2.82% (PC-3; AO/EB staining; 2 µM, 24 h).
With `N=C(N)NCCC[C@@H]1NC(=O)[C@H](Cc2c[nH]c3ccccc23)NC(=O)[C@@H](CC2CCCCC2)NC(=O)[C@@H]2CCCN2C(=O)[C@@H](NC(=O)CCc2ccccc2)CCCNC1=O` the absorption half-life was 0.515 h (C57BL/6J mice, spinal cord; subcutaneous, 1 mg/kg).
With `NC(=O)[C@H](Cc1ccccc1)N[11C](=O)OCc1ccccc1` the intact tracer was 52% and 52.3% (male Wistar rats, plasma; intravenous, 5 min).
`CCc1c2c(nc3ccc(O)cc13)-c1cc3c(c(=O)n1C2)COC(=O)[C@]3(O)CC` has an AUC(0-inf) of 24 ng·h/mL (human patients, plasma; intravenous, 3 mg/m^2 of parent drug).
`N#Cc1ccc(-c2ccc(-c3ccco3)o2)nc1` has a viability of 139 ± 11.2% (Salmonella typhimurium; liquid broth OD; TA1535; 12.5 µM, 15 h; reference: growth).
The IC50 of `CC(C)[C@H]1c2ccc(F)cc2CC[C@@]1(CCN(C)CCCc1nc2ccccc2[nH]1)OC(=O)C1CC1` is reported as 62 ± 21 µM (cytotoxicity, AlamarBlue; human sperm; 3 h).
The tissue concentration of `CC/C=C\C/C=C\C/C=C\C/C=C\C/C=C\CCCCOC(CC)C(=O)O` (centres unmarked) is reported as 4 µg equivalents/g tissue (radioactivity, 14C-labelled; Wistar rat, male, subcutaneous fat; oral, 100 mg/kg, 3 days).
`Brc1ccc(Nc2nc(NN=Cc3c[nH]c4ccccc34)nc(N3CCOCC3)n2)cc1` has a hepatic clearance of 2.4 mL/min (mouse liver microsomes; in vivo extrapolated).
The AUC(tau) of `O=C(CCc1ccc(CNC(C(=O)O)C2CCCCC2)cn1)NO` (centres unmarked) is reported as 308 ng·h/mL (human, plasma; oral, 40 mg once daily, day 1, geometric mean).
With `CC(=O)N[C@H](CC(=O)O)C(=O)N[C@H](Cc1c[nH]c2ccccc12)C(=O)N[C@H](Cc1ccccc1)C(=O)N[C@H](CCCCN)C(=O)N[C@H](C)C(=O)N[C@H](Cc1ccccc1)C(=O)N[C@H](Cc1ccc(O)cc1)C(=O)N[C@H](CC(=O)O)C(=O)N[C@H](CCCCN)C(=O)N[C@@H](C(=O)N[C@H](C)C(=O)N[C@H](CCC(=O)O)C(=O)N[C@H](CCCCN)C(=O)N[C@H](Cc1ccccc1)C(=O)N[C@H](CCCCN)C(=O)N[C@H](CCC(=O)O)C(=O)N[C@H](C)C(=O)N[C@H](Cc1ccccc1)C(N)=O)C(C)C` the Cmax was 8.1 ng/mL (statin-treated high-risk CHD patients, plasma; oral, 300 mg daily, day 13, 0 to 8 h, mean, detected subjects only).
The t1/2 of `Cc1ccc(OCC(=O)O)cc1` is reported as 3.71 h (Sprague-Dawley rat Crl:CD(SD), male, plasma; oral, 100 mg/kg/day of parent drug, day 90, 90-day repeated dosing).
`[2H]C([2H])([2H])Oc1cc2c(cc1OC([2H])([2H])[2H])[C@H]1CC(=O)[C@H](CC(C)C)CN1CC2`: “subjects with adverse event” 9.5% (item: headache; human; oral, 25 mg).
With `COc1cc(N(C)CCN(C)C)c(NC(=O)CCSCC(NC(C)=O)C(=O)O)cc1Nc1nccc(-c2cn(C3CC3)c3ccccc23)n1` (centres unmarked) the excreted amount was 1.11% (radio-HPLC; human, feces; 0 to 48 h, sample holds 45.32% dose; reference: dose).
`COc1ccc(-c2csc(N/N=C(\C)c3cc(O)cc(O)c3)n2)cc1`: “concentration after storage” 956 ng/mL (LC-MS/MS; rat plasma; 1000 ng/mL, freeze-thaw 5 cycles at 20 °C).
`OC1(C(F)(F)F)CCN(c2nc(Nc3ccnc(C(F)(F)F)c3)nc(-c3cccc(C(F)(F)F)n3)n2)C1` (centres unmarked) — result for “Cmax accumulation ratio”: 5 (monkey, both sexes; oral, 1 mg/kg daily for 14 days; reference: day 14 over day 1).
Under “mean absorbed dose”, `NC12CNCCNCC(NCc3ccc(CNC(=O)CCCC(=O)NCc4ccc(-c5nncnn5)cc4)cc3)(CNCCNC1)CNCCNC2.[64Cu+2]` is recorded as 0.0411 rad/mCi (OLINDA dosimetry; upper large intestine wall; pretargeting, 24-h interval).
Under “singlet excited-state lifetime”, `COCCOCCOCCOCCOCCOCCOCCOCCC(=O)NCCCc1cc2cc3nc(cc4[nH]c(cc5nc(c(OC)c1[nH]2)C(=O)C5(C)C)cc4CCc1ccc(C(=O)O)cc1)CC3(C)C` is recorded as 2.76 ns (water with 5% DMF; room temperature).
`CC[C@@H](C)[C@@H](NC(=O)[C@@H](C)NC(=O)[C@@H](CCCCN)NC(=O)[C@@H](CC(C)C)NC(=O)[C@@H](CC(C)C)NC(=O)[C@H](NC(=O)[C@@H](CCCCN)NC(=O)[C@@H](CC(C)C)NC(=O)[C@@H](CCCCN)NC(=O)[C@@H](CCCCN)NC(=O)[C@@H](CCCCN)NC(=O)[C@@H](CCCCN)NC(=O)[C@@H](C)NC(=O)[C@@H](CCCCN)NC(=O)[C@@H](CO)NC(=O)[C@@H](Cc1ccccc1)NC(=O)[C@H](NC(=O)[C@@H](CCCCN)NC(=O)[C@@H](CC(C)C)NC(=O)[C@@H](Cc1ccccc1)NC(=O)[C@@H](CO)NC(=O)[C@@H](CCCCN)NC(=O)[C@@H](Cc1c[nH]c2ccccc12)NC(=O)[C@@H](CCCCN)NC(C)=O)[C@H](C)O)[C@H](C)O)C(=O)N[C@H](CO)C(=O)N[C@H](CCCCN)C(N)=O` gave a helical content of 5% (circular dichroism; aqueous buffer; pH 7.0, 5 °C; reference: reference peptide in TFE).
The Tmax, median of `CC1C(c2c(F)ccc(F)c2F)CC(N[14C](=O)c2cnc3c(c2)CC2(C3)C(=O)Nc3ncccc32)C(=O)N1CC(F)(F)F` (centres unmarked) is reported as 1.5 h (liquid scintillation counting, item: total radioactivity; human, plasma; oral, 50 mg, single dose, 14C-labelled).
For `O=c1nc(NO)ccn1[C@@H]1O[C@H](CO)[C@@H](O)[C@H]1O`, the protein level was 1.3 fold (Western blot, item: CYP2C19; rat, normal, liver; oral, 80 mg/kg twice daily, 5 days; reference: control group).
The tissue uptake of `[64Cu+2].c1cnc(CNCc2ccc(CN3CCCN4CCNCCCN(CC4)CC3)cc2)nc1` is reported as 3.26 ± 0.64 %ID/g (CXCR4; NOD/SCID mouse, U87 and U87-stb-CXCR4 xenografts, stomach; iv, 120 min, ex vivo).
`O=C([O][Ti+2][O]C(=O)c1ccc(P(c2ccccc2)c2ccccc2)cc1)c1ccc(P(c2ccccc2)c2ccccc2)cc1.[Cl][Au].[Cl][Au].c1cc[cH-]c1.c1cc[cH-]c1` has an absorption half-life of 0.6 h (ICP-MS, item: gold; NOD.CB17-Prkdc scid/J mice, blood or plasma; 7.5 mg/kg, after first injection).
`CC(C)[C@H](NC(=O)CNC(=O)[C@H](CCC(N)=O)NC(=O)[C@H](C)N)C(=O)O`: “volume of distribution” 16 L/kg (LC-MS/MS; human, male, plasma; intravenous, 30 mg/kg three times daily, day 1, first dose, 10 min infusion, geometric mean).
For `COc1cc(/C=C/C(=O)N2CCc3ccccc3C2)ccc1O[11CH3]`, the uptake was 11.4 ± 0.11 %ID/cc (PET-CT imaging; C57BL/6 mouse, male, spleen; intravenous, 5 min).
With `CCCC[C@H](NC(=O)CNC(=O)CNC(=O)CN1CCN(CC(=O)O)CCN(CC(=O)O)CC1)C(=O)N[C@H]1CC(=O)NCCCC[C@@H](C(N)=O)NC(=O)[C@H](Cc2c[nH]c3ccccc23)NC(=O)[C@H](CCCNC(=N)N)NC(=O)[C@@H](Cc2ccccc2)NC(=O)[C@H](Cc2c[nH]cn2)NC1=O` [copper-64 labelled] the uptake ratio was 8.02 (female C57 mouse, B16/F1 melanoma; intravenous, 0.037 MBq, 24 h; reference: tumour over liver).
With `CCc1nc(N)nc(N)c1C#CC(C)c1cc(-c2cc(C)nc(C)c2)ccc1Cl` (centres unmarked) the hepatic clearance was roughly 10 mL/min/kg (extrapolated from hepatocyte CLint; pooled human hepatocytes; 1 µM).
`COc1cc([O-])c(C=NCCCN(C)CCN(C)CCCN=Cc2c([O-])cc(OC)cc2OC)c(OC)c1.[67Ga+3]` — result for “tissue uptake ratio”: 0.68 ± 0.08 (rat; intravenous, 1 min; reference: heart over blood).
The depolymerization half-life of `CCC(=O)N[C@@H](C)C(=O)OCC(=O)N[C@@H](C)C(=O)O` is reported as 23.9 h (water; pH 8, 37 °C).
For `COc1cc(NC(C)=O)c2c(c1O)-c1c(OC)c(OC)cc3c1C(C2)N(C)CC3` (centres unmarked), the remaining compound was 99.4 ± 0.7% (rat liver homogenate; 5 µg/mL, 24 h, room temperature, post-preparative storage).
`CC(C)c1cnc(-c2cc(Cl)ccc2F)cc1Nc1ccncc1C(=O)NC(CO)CO` — result for “patients with treatment-related adverse event”: 0% (monotherapy, item: diarrhoea; human patients; oral, dose not given, grade 3, phase I A).
`[11CH3]c1ccc2nc(C3CCC3)n(-c3ccc4[nH]ncc4c3)c2n1` gave an uptake ratio of 10.5 (ddY mouse, lungs; reference: 1 min over 60 min).
`O=C(O[C@@H]1Cc2c(O)cc(O)cc2O[C@@H]1c1cc(O)c(O)c(O)c1)c1cc(O)c(O)c(O)c1` gave an AUC(0-6h) of 0.664 ± 0.0778 µM·h (human, male, plasma; oral, 135 mg, catechin-rich beverage).
For `C[C@H](Oc1cc(-c2cnn(C3CCN(CC[18F])CC3)c2)cnc1N)c1c(Cl)ccc(F)c1Cl`, the tracer uptake was 3.6 ± 0.8 %ID/cc (PET imaging; nude mouse, heart; iv, 10 min post injection).
For `Cn1c(=O)oc2ccc(-c3ccc(CC(C#N)NC(=O)C4CNCCCO4)c(F)c3)cc21` (centres unmarked), “treatment-emergent adverse event incidence” read 3.7% (item: skin exfoliation; human volunteers; oral, dose not given).
With `NCC(=O)N1CCC[C@H]1C(=O)N1C[C@H](O)C[C@H]1C(=O)O` the log beta was 8.75 (potentiometric titration; 40 °C, MAH-2 complex, with: Fe(III)).
`CC(C)(O)c1ncc([S@](N)(=O)=NC(=O)Nc2c3c(cc4c2CCC4)CCC3)s1` has an AUC(0-last) of 98500 ng·h/mL (healthy human fasted, plasma; oral, 100 mg single dose, spray-dried dispersion).
